Results pooled from the literature.
Every numbered part comes from another study and shows a few of its results, in no order.

Block 1
Target: Sal-like protein 4, full length isoform A (SALL4, Homo sapiens, UniProt Q9UJQ4, residues 1-1053)
Sequence of UniProt Q9UJQ4 (whole entry, looked up): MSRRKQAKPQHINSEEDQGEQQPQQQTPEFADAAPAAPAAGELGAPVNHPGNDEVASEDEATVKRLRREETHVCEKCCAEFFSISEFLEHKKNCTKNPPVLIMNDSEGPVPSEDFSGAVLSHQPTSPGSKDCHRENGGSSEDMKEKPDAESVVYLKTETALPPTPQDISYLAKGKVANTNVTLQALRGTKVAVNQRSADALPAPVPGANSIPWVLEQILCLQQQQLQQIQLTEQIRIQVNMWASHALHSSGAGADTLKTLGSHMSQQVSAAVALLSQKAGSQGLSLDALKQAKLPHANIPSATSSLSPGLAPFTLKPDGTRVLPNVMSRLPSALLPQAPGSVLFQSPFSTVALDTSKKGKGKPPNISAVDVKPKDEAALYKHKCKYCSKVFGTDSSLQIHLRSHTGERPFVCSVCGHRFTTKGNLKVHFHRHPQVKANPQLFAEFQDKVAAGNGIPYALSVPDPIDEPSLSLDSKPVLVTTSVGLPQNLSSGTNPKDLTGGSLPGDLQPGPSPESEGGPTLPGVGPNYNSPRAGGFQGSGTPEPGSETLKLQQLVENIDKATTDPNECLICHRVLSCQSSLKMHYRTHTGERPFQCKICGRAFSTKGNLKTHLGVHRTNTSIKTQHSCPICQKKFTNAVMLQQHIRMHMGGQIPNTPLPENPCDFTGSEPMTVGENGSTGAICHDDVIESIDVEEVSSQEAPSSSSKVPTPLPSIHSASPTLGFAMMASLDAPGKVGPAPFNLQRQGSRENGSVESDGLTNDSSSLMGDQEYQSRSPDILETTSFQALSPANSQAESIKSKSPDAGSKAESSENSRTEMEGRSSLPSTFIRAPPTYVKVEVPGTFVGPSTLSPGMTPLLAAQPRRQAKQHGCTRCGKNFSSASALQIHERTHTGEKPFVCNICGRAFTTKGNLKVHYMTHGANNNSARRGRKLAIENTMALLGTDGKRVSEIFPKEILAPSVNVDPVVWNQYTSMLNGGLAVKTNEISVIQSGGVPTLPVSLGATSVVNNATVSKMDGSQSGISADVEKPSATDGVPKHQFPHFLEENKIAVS
Technique: universal PBM
Molecule type: double-stranded DNA, one strand shown
Matrix: in vitro
Tested at: 600 nM
Setting: 8-mer, flanks averaged, mean of replicates
Direction: higher = stronger binding
Endpoint: E-score
Sequence = CGTCCTCC; value = -0.134
Sequence = ACTGGTCC; value = -0.292
Sequence = CCTAGTTC; value = -0.0129
Sequence = CCTGATGC; value = -0.059
Sequence = TATCGAGA; value = 0.131
Sequence = ATAAGGCA; value = 0.113
Sequence = ATGTACCA; value = 0.127
Sequence = ACGCCGAT; value = -0.176
Sequence = GAATCCAA; value = -0.0135
Sequence = CGAAGTCG; value = -0.0791
Sequence = ACCAATAA; value = 0.23
Sequence = AGATAAAT; value = 0.286
Sequence = CCTGACTA; value = 0.101
Sequence = GGTCTAAA; value = 0.0966
Sequence = CACGGGGC; value = -0.33
Sequence = AACGGTGT; value = -0.0129
Sequence = CTTACGCA; value = 0.0589
Sequence = ACGTGGTA; value = -0.0318

Block 2
Target: Histone acetyltransferase KAT6A, winged helix 2, GST fusion (KAT6A, Homo sapiens, UniProt Q92794, residues 85-181)
Technique: protein binding microarray
Molecule type: double-stranded DNA, one strand shown
Matrix: in vitro
Tested at: not given
Setting: 8-mer, flanks averaged, mean of 2 arrays, mostly near background
Baseline: not given
Direction: higher = stronger binding
Endpoint: E-score
Target sequence (chain): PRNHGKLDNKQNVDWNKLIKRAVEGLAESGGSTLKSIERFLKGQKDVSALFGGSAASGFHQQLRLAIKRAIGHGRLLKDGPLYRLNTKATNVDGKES
Sequence = GCCGTTAC; value = 0.0151
Sequence = GTTCACAA; value = 0.0964
Sequence = ACACGAGG; value = 0.0132
Sequence = CAGGGCCG; value = 0.133
Sequence = GGCAGCAA; value = 0.115
Sequence = GCATCTTA; value = -0.00357
Sequence = ATTGTAAA; value = 0.0398
Sequence = CCATTAAC; value = -0.00844
Sequence = ATAAGATG; value = -0.0532
Sequence = CGATGACC; value = 0.0465
Sequence = AAACGCAG; value = 0.139
Sequence = ACGAAACT; value = 0.0949
Sequence = ATAGATAA; value = -0.0108
Sequence = TACTTCAA; value = -0.0722
Sequence = ATTTTCGA; value = 0.0608
Sequence = ATGTCTAG; value = 0.111
Sequence = CCAGAAAA; value = 0.119
Sequence = AAATCAGT; value = -0.0232
Sequence = ACAATTCT; value = 0.149
Sequence = CGCTCCGA; value = 0.224
Sequence = AGAGTGTA; value = -0.215
Sequence = AAAAAGAC; value = 0.0384
Sequence = CAATACAA; value = -0.0543
Sequence = TCGGATCA; value = 0.0432
Sequence = AACTTGGT; value = -0.0783

Block 3
Target: RNA binding protein fox-1 homolog 2, RRM domain, GST-SBP tag (RBFOX2, Homo sapiens, UniProt O43251-10, residues 100-194)
Technique: RNA Bind-n-Seq
Molecule type: RNA
Matrix: in vitro
Tested at: 365 nM
Setting: natural RNA segment, single round, ends assumed
Baseline: no-protein control
Direction: higher = stronger binding
Endpoint: RBNS enrichment (R)
Shared flanks, not repeated: GGGAGUUCUACAGUCCGACGAUC … UGGAAUUCUCGGGUGCCAA
Construct (chain): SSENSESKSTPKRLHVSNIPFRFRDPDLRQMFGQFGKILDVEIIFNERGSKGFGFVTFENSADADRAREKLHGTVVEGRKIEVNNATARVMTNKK
Sequence = AAGCACAGAAUAUUUUUAUAUUUCCUUUAUGUGAAUUUUUAAGCUGCAAAUCUGAUGGCCUUAAUUUCCUUUUUGACACUGAAAGUUUUGUAAAAGAAAUCAUGUCCAUA; value = 0.504
Sequence = CUGCGCUCCUCCCAACACAGACGCAGUGGCCUGCGCAGAGCACUCAGGGCCAGUGCCAUCUGUGAUUCAUGAUCACUAGGUUAUAGGUGAAAUCUCAGUAAGUUAUUUUG; value = 0.396
Sequence = CUCUGUGUGUGUCGUCCCUCAUCCCGUGUAAAUAUCACCAUCCUUGUGACACUGGCACUAAGCAAUGUGUGCUCUGCCCAGCACACCUGGACAUGUUCUCUCGGCUGGCU; value = 0.548
Sequence = AUUUCCCCAUGGGCUUCUAAAAUGUCACCAUCUCCUCCCCUGCUGUGUCCUACUCCAUUUACUGGUUACAAGGUGAUGUCAACAAGAGAAGCUAUCACAACACCAGGGCU; value = 0.396
Sequence = GAAAAUGUGUCAGCAUGCAUAGUGCUAAGAAAGCAAGCCAAUUUGGAAACUUAGGUUAGUGACAAAAUUGGCCAGAGAGUGGGGGUGAUGAUGACCAAGAAUUACAAGUA; value = 1.02
Sequence = CAAAGCUGGUGUAGCCAUGCUGGUGAGAAAAAUCCUGUUCAACCUGGGUUCUCCCAGUUACGGAAACCUUUUAAAGAUCCACAUUAGCCUUUUAGAAUAAAGCUGCUACU; value = 0.248
Sequence = UCUUCAAAUGAAUGUGAGUGAAGCAGCCCAAGGCUCUUCCUUAAUUCCUCUGGAGUGAUGCUGUGCCAUGCUGGUCUUUGCUUCUAGUAAUAAAACAUCAAAUUAGGUUU; value = 0.393
Sequence = UCCACCCACACCUAAGUCACAGAAUUUCUAAGUUCCCCAACUACUCUCACACCCUUUUAAAGAUAAAGUAUGUUGUAACCAGGAUGUCUUAAAUGAUUCUUUGUGUACCU; value = 0.445
Sequence = UGUGUGAUCAGACCAUUGAAACCACUAAUUCUGUCCCCAGGAGACUUGGCUGUGUGUGUGAGUGGCUUACCCUUCCUCAUCUUCCCUUCCCAAGGCACAGAGCAAUGGGG; value = 0.39
Sequence = GGGCCACACUGGCCUAGCCUGAACCUAGAUCCCUAACCCUGGGCUGGGUGAGGCUCACCUGCCCAGGACCACAGUGGGACAGCCUGGGCAGGUGGGUGGCACAGCAUAAG; value = 0.4
Sequence = GACUCUUUAAUGUCAAAAAAACUGAAGGGCAGAAAAAAGGUUCCUUACAUCAAAAUGAAAGUAAUUACAUUAAUAGAAAACUUCCAAGUGGAAUAUUGUUCACAGGCAGC; value = 0.513
Sequence = GACGAAGCCUUGAGCUGAAGGAGGUGCUGUCGGCUAGGCCUCUACUCUGGGUUUCAGAGAGUAGUAUUGGUUUCAGUCUGGUCUCAUUUCCAUUGCCUUAACGCUGGGUG; value = 0.302

Block 4
Target: Interferon regulatory factor 3, full length, phosphomimetic (IRF3, Homo sapiens, UniProt Q14653, residues 1-427, S386D/S396D/S398D/S402D/T404D/S405D)
Technique: protein-binding microarray
Molecule type: double-stranded DNA, one strand shown
Matrix: in vitro
Tested at: 2540 nM top
Setting: 60-bp whole probe
Added: salmon DNA 0.4 mg/ml
Baseline: random background probes
Direction: higher = stronger binding
Endpoint: fitted relative affinity
Shared flanks, not repeated: GCCTAGCAC … GTCTTGATTCGCTTGACGCTGCTG
Target sequence (chain): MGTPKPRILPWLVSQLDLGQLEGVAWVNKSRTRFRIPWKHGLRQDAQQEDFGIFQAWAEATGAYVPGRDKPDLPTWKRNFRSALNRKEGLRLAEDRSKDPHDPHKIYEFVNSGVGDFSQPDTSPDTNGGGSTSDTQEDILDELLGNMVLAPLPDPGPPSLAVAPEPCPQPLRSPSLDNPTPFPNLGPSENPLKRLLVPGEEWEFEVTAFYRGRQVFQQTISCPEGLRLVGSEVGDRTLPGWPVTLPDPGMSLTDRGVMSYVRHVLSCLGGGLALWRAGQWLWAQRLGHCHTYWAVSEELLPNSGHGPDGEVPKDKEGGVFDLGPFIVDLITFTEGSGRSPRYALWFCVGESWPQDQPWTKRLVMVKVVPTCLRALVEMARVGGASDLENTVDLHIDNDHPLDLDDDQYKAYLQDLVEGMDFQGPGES
Sequence = TTAGGACTGCTTCTCCTTCAGTGCTAG; value = -0.33 z-score
Sequence = TTAGGACTAGGTCTCGGTTAGTGCTAG; value = -0.414 z-score
Sequence = TTAGGTTTCCTACTGCATTAGTGCTAG; value = 5.18 z-score
Sequence = GACGATCTCAGTCTCGAGATGTGCTAG; value = 0.74 z-score
Sequence = TTAGGACTGCTACTGCTTTAGTGCTAG; value = -0.704 z-score
Sequence = TCACCTCTTTCTTTGCTACTGTGCTAG; value = 1.43 z-score
Sequence = TTAGATGTCAGTATCGATTAGTGCTAG; value = 1.38 z-score
Sequence = TTAGGTTTCCTTCTTCTTTAGTGCTAG; value = 9.74 z-score
Sequence = TCACTCACCTAGTTTCATACTGTGCTA; value = 1.41 z-score
Sequence = GACGGTATCCTGTTCCTGACGTGCTAG; value = 2.21 z-score
Sequence = GTGTTACTAAAATTTCATGAAGTGCTA; value = 0.173 z-score
Sequence = TTCTCTTTCACTACTCCATTGTGCTAG; value = 2.85 z-score
Sequence = GACGGACTGCTTAGCCTGACGTGCTAG; value = -0.514 z-score
Sequence = TCAGGTATCGGTCTCGGTTAGTGCTAG; value = 4.39 z-score
Sequence = GACGATTTCTGTTCCGAGACGTGCTAG; value = 3.52 z-score
Sequence = GACGGACTGGACTTTCGGGGCGTGCTA; value = -0.303 z-score
Sequence = GACGAGCTGGGGTATCGAGACGTGCTA; value = -0.85 z-score
Sequence = TTGCATCGTAAGCAAAAATGGTGCTAG; value = -0.127 z-score
Sequence = GCCGGTATCGGGTTTCGGGACGTGCTA; value = 3.25 z-score
Sequence = GGTATTCGGAACTTTTAGCTGTGCTAG; value = 0.929 z-score
Sequence = TTCACTTTCTTTACTTCACTGTGCTAG; value = 3.07 z-score
Sequence = GACGATTTCAGTGTCGAGACGTGCTAG; value = 1.47 z-score
Sequence = TTCTCTTTTATTTTTTTTATGTGCTAG; value = 3.18 z-score
Sequence = TTAGGTTTCCTTTTCCTCTAGTGCTAG; value = 11.3 z-score

Block 5
Target: Myc proto-oncogene protein, bHLH-zipper, MAX partner unstated (MYC, Homo sapiens, UniProt P01106, residues 368-449)
Sequence of UniProt P01106 (368-449, looked up): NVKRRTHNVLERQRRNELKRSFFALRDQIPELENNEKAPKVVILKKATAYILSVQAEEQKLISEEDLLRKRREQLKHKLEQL
Technique: protein-binding microarray
Molecule type: double-stranded DNA, one strand shown
Matrix: in vitro
Tested at: not given
Setting: k-mer, scored over probes, only values ≥0.25
Direction: higher = stronger binding
Endpoint: E-score
Sequence = CAGCATGC; value = 0.418
Sequence = ATGAGGGG; value = 0.313
Sequence = ACCATGCG; value = 0.467
Sequence = GAGCGTGC; value = 0.345
Sequence = GCACGCTA; value = 0.35
Sequence = CACGAGGA; value = 0.458
Sequence = GCATGAAC; value = 0.268
Sequence = CCTCATGA; value = 0.346
Sequence = CGTGCTAA; value = 0.318
Sequence = ACGTGACA; value = 0.426
Sequence = AGAACACG; value = 0.387
Sequence = GTGCCCCA; value = 0.261
Sequence = ACCATGAG; value = 0.405
Sequence = AATGTGTC; value = 0.278
Sequence = CGTGGCAG; value = 0.398
Sequence = CTCATGTC; value = 0.323
Sequence = ACGTGTCT; value = 0.416
Sequence = CCATGTGC; value = 0.487
Sequence = CATCGTGG; value = 0.407
Sequence = AGGCCACG; value = 0.34
Sequence = ACCACATG; value = 0.476
Sequence = GCCTCCCC; value = 0.364
Sequence = GGTAGCAC; value = 0.306
Sequence = CGCGTGTC; value = 0.448
Sequence = GAGCCCAC; value = 0.257
